Results gathered from unrelated publications.
Every numbered part comes from another study and shows a few of its results, in no order.

Sample 1 — technique: protein-binding microarray; form: double-stranded DNA, one strand shown; medium: in vitro; tested at: 250 nM; notes: 60-bp whole probe; together with: salmon DNA 0.4 mg/ml; reference: random background probes; reading: higher = stronger binding; shared flanks, not repeated: GCCTAGCAC … GTCTTGATTCGCTTGACGCTGCTG
Target: Interferon regulatory factor 7, full length, phosphomimetic (IRF7, Homo sapiens, UniProt Q92985, residues 1-503, S101K/S471D/S472D/S475D/S476D/S477D/S483D/S484D/S487D)
Residues (chain): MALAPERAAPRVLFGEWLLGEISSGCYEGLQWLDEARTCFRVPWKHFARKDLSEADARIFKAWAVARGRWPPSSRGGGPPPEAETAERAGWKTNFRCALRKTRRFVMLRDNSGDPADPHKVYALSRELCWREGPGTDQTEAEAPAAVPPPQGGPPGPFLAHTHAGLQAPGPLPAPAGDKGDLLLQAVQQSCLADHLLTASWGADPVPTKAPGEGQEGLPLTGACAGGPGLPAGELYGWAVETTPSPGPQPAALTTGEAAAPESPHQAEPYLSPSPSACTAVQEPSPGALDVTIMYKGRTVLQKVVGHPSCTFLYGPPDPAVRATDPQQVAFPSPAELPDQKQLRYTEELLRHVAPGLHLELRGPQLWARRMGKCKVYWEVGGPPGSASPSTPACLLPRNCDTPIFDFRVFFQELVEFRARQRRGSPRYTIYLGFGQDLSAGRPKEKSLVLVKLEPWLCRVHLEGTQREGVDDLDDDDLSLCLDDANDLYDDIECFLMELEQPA
| Sequence | log fluorescence [z-score] |
| --- | --- |
| TTAGGTTGCGGGTATCGGTTAGTGCTA | 0.437 |
| TTAGATATCAGTCTCGCTTAGTGCTAG | 0.831 |
| TTAGGACTGGGGCATCGGTTAGTGCTA | -0.472 |
| GACGGACTGGACAGTGGGGACGTGCTA | -0.821 |
| GACGGACTGGGCCTCGGGACGTGCTAG | -0.529 |
| TTAGGACTGGGACTGGGTTGGTGCTAG | -0.0175 |
| TTAGGCTTCGACTATCGGTTAGTGCTA | -0.381 |
| TTAGGTATTGGTCTCGGTTAGTGCTAG | 1.68 |
| GACGGTATCGGTATCGGGAGGTGCTAG | 1.13 |
| TTCGATTTCGGGTATCGATTAGTGCTA | 2.15 |
| TTAGGTTTCGGTATCGGTTTGTGCTAG | 11.3 |
| TCATTACCGCATATCGGACTGTGCTAG | 0.8 |
| GTCGGTTTCGGTTCCGGGACGTGCTAG | 13.3 |
| TAAGCAAAAATGATTGGTTGGTGCTAG | -0.102 |
| CCTCCCTCTCCCGGAGTTCCGTGCTAG | 0.0769 |
| AACGATGCAAGTGCCCTTCGGTGCTAG | -0.522 |
| TGCTCCTTATGGCTAAAGGGGTGCTAG | 0.0571 |
| TTAGCACTGAGTATCGATTAGTGCTAG | 0.0408 |
| GACGGCATCGGTATCGGGACGTGCTAG | -0.242 |

Sample 2 — technique: protein binding microarray; form: double-stranded DNA, one strand shown; medium: in vitro; tested at: not given; reference: not given; reading: higher = stronger binding
Target: Histone acetyltransferase KAT6A, both winged helices, GST fusion (KAT6A, Homo sapiens, UniProt Q92794, residues 1-181)
Notes: 8-mer, flanks averaged, mean of 2 arrays, mostly near background
Construct (chain): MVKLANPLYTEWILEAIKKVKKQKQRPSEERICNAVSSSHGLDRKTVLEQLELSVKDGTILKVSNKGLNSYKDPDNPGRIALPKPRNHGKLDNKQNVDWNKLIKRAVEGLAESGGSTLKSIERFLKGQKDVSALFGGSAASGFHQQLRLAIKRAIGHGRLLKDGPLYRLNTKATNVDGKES
| Sequence | E-score |
| --- | --- |
| ACTGCGAA | 0.0529 |
| AGTATCAT | -0.0391 |
| ACATAAGA | -0.0576 |
| GCACAAGC | -0.0737 |
| GATCGAAC | -0.046 |
| CCATATGG | 0.0317 |
| AACTTTAT | -0.0853 |
| TCGGAGCA | 0.0474 |
| AAGCCGTG | 0.251 |
| GAACTTGA | -0.13 |
| CAACTGCC | 0.124 |
| CCTAAAGC | -0.0469 |
| GCGATCCC | 0.0796 |
| AATGCTAA | -0.141 |
| CGTACCAA | 0.0291 |
| CGTAAGAA | 0.00982 |
| AATCACGG | 0.258 |
| GGGTTAAA | -0.00593 |
| TCCATCAA | -0.155 |
| AACGCTGT | 0.132 |
| AAATTACG | -0.0591 |

Sample 3 — technique: RNA Bind-n-Seq; form: RNA; medium: in vitro; tested at: 365 nM; reference: no-protein control; reading: higher = stronger binding
Target: RNA binding protein fox-1 homolog 2, RRM domain, GST-SBP tag (RBFOX2, Homo sapiens, UniProt O43251-10, residues 100-194)
Notes: natural RNA segment, single round, ends assumed
Target sequence (chain): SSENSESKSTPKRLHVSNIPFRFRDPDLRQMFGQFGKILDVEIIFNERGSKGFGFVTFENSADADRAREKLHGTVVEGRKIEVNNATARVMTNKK
| Sequence | RBNS enrichment (R) |
| --- | --- |
| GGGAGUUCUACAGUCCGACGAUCCCGAGAUUGCGCCAUUGCACUCCAGCCUGGGCAAAAAGAGUGAGACUCUGUCUCAAAAAAAAAACAAAACAAAAAAAACCUCUUUGCUGGUAUAUUUGAAGAGCUUGGGAUGGAAUUCUCGGGUGCCAA | 0.779 |
| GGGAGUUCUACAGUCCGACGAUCAAGCCAGCACGCGGUUCUGUGCUAUAGGAGUCUCCCGUUUCCCGUGGACAGGUUCAGCGUUCCUUCUUUCGCACAACUUUUUUCUAAGUGUUCCAGUGACCAAGCCAGUCUGGAAUUCUCGGGUGCCAA | 1.65 |
| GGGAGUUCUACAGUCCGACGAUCGGAUUGUAGGCAAACCCACCUGUGGCAUCACUGAAAAUAAAUUUGAUCAUACCUAAGAGGUUAGGAAAUGGUGCCAUUCCCACCUUAGAGUGCUACAUAGGUGCUUUGGGUGGAAUUCUCGGGUGCCAA | 0.231 |
| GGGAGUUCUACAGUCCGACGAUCUACUACAUGAUUUGUUCCCAGAGGUUUGAAACAUUCAGUGAAACUUUUUAAAACUUUGAUUGCAUGAUGUAUUUUUUUUUUAGAAAGUUAUUGUUUGAGAAUAAUGUCUUUGGAAUUCUCGGGUGCCAA | 24.1 |
| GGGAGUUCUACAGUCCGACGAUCUUUGUCACCUUUGCAUUGCAGAAUAAAUACCCAAUAACCGUUUUUAUAGGAGUUGCUCCUCUUUGCAUGGUUCUGUUCUAUAGAAGUGACUGAUAACAGCCAUUGCACUGUGGAAUUCUCGGGUGCCAA | 0.797 |
| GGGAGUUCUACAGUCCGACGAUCGGGUGCUGCCCUCAGGGACUGCACCCUGACAAGUGUUAAGGCAACAUUCCUUUCUUGUGCCCUGGGCCAAAACCAAUGCUGAUGACCUUAUCAGCUUCCUGUUUCUUCCCUGGAAUUCUCGGGUGCCAA | 0.221 |
| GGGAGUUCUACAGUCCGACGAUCUCUUUUCAGAGUUUCGAAGGAUUAAUGACUUCCUCAGCGCCCUUGCUGGCGGGCUGAGGGUGACAGUCACGUCCGUUUCUUCUGUAUUAGAAGGCUGCGGUGAUUCAAUUUGGAAUUCUCGGGUGCCAA | 0.217 |
| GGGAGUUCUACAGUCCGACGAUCAUGGUGUUUUUAAAAGGCCAAGUGUUGCAAAAGUUUGCACGUGCAACCGUAUAUUAAUCGCCAGUGUUUAAAACUGGUUUAUCAGAAUUUAUAUUUUUGUCUCUCCUGCCUGGAAUUCUCGGGUGCCAA | 1.43 |

Sample 4 — technique: EMSA with sequencing; form: double-stranded DNA, one strand shown; medium: in vitro; tested at: 10 and 20 nM; reference: negative control set to 0; reading: higher = stronger binding
Target: Hepatocyte nuclear factor 3-alpha (Foxa1, Mus musculus, UniProt P35582, residues 1-468, full length assumed)
Chain of UniProt P35582 (whole entry, looked up): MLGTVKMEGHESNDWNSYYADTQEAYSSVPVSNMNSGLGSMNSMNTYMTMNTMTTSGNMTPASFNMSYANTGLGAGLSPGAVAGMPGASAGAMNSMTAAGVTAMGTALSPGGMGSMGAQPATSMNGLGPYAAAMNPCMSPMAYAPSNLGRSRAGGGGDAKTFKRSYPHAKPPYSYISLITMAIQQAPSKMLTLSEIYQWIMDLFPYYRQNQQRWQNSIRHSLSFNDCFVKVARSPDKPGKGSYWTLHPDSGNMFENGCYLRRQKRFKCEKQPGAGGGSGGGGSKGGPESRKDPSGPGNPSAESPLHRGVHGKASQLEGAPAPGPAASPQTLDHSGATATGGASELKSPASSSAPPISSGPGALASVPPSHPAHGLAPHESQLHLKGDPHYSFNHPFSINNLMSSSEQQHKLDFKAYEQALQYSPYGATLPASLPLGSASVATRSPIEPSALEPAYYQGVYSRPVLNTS
Notes: whole designed probe, mean of two concentrations, ends assumed
| Sequence | normalised bound fraction [ratio] |
| --- | --- |
| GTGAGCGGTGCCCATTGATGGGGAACTGCAACATGCACCAGTTTCCTGGAGGTTAGTTGCTAATTCTAAAAGGCTTCAGATAATTCACTGTGTATTGAGTCATGGCTTGATGACGACCTTGTTTACAAAGCTCATTCAAACAGCCCAGTTCCTGCCCGTTTGCTCTTTGACCCTGACCGAAATCCACCAGAAGGCGAGTGACTTACAATGGGATTATTCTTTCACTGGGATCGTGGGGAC | 0.236 |
| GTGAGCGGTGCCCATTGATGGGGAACATCTTCCCCCTCTTCCTTGCCCCACCAGCTCACCTTCCCGGGTTGTTTACTTTGAGCAAAGTAAACAAAGCCGGCATTCGTTAACCCTCTTCTGGCGCAAACTGCCAGAGCAAACAGATCTAACATGGTCCTTTGGCGACGCCAGGCTCCGGGAGAGCAAAGCACCGTGTCAGGGCCATGATCCGGGGTGGCCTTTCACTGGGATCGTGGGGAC | 0.543 |
| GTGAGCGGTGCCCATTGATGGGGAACTTATGATCTGAGTATATATAGTAAGTACCTCCCCTTTCAGGGTAAGGCAGTAGGTAATGGTGAAAAACAGGGAAGCAGGTGACTCAGGTTGAGTAAACAACACCAAGCATATCTGACTCAAGGAATGCTTCAGAGGCCAGGGGTGCATGCCTGTAATCCCAGCACCTTGGAAGGCTGACACAGGAGGATCACTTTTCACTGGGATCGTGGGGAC | 0.406 |
| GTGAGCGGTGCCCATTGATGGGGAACATTGATATAATAAAAAAACACTGATAAAGTTTATTAAAACACTTAAAGGACATTTCTCATTTTGCATAATATTTTGTAATAAAATCATCTATGTAAATATGGAAAATGTGTAGGGAAGTGAGAAGAACATTAACCACACAAAGTGTACCCCTGAGTCTCTATGAGATTTCATTTCCTTTTGTAAAATAAAATGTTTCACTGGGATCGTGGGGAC | 0.37 |
| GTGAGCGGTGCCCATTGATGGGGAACTAAACCAAGGTTTAAACTATTTCCTAGTGTCAAAAATATAATGAATACATGTTGGATTATGTGACTGGTATTTAGCAAAAGGTGCACACATGTCTGTTTACTTTGGTGTTTCATGATTTTGACCTTTTAGGTGCTTCTTGTTAGTAATTGGTTGAAGAGGAGTTGTAGCCAATTTTAATGTTTGTAATTCATATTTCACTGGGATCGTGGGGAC | 0.435 |

Sample 5 — technique: universal PBM; form: double-stranded DNA, one strand shown; medium: in vitro; tested at: 600 nM; reading: higher = stronger binding
Target: Sal-like protein 4, full length isoform A (SALL4, Homo sapiens, UniProt Q9UJQ4, residues 1-1053)
Chain of UniProt Q9UJQ4 (whole entry, looked up): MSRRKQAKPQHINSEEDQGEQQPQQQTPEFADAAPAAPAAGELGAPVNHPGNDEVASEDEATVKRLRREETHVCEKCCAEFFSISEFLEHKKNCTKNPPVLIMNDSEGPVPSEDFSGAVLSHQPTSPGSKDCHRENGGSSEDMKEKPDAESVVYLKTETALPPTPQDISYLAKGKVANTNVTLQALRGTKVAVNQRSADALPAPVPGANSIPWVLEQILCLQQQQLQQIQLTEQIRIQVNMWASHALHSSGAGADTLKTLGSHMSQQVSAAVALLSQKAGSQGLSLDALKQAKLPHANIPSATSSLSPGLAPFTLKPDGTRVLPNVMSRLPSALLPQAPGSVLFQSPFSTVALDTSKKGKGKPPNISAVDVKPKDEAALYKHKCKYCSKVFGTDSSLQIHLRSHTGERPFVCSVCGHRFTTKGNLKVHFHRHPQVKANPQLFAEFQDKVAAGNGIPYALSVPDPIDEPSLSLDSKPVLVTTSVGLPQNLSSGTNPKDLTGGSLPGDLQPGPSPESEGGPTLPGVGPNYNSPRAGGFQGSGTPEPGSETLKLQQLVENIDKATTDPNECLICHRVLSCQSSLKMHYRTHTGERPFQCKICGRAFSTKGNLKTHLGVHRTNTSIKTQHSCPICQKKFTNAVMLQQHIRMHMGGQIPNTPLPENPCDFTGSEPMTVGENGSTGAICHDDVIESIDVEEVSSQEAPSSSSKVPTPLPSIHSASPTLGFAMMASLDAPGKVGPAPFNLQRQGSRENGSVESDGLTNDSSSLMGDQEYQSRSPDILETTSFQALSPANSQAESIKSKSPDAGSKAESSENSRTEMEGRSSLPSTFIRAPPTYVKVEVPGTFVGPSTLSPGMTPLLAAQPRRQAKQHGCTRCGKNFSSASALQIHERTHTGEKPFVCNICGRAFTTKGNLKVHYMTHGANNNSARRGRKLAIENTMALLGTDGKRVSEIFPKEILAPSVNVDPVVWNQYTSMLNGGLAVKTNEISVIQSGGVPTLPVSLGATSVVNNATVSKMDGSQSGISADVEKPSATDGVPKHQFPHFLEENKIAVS
Notes: 8-mer, flanks averaged, mean of replicates
| Sequence | E-score |
| --- | --- |
| AATAGATT | 0.3 |
| GCTTAAGC | -0.0883 |
| GGTTGGTA | 0.0395 |
| CAGCAATC | 0.0413 |
| ACGACGTA | 0.133 |
| ATGGTCTA | 0.0295 |
| ACAGCTCT | -0.17 |
| GCCTATAA | 0.205 |
| ACCGCCCT | -0.2 |
| ATTTGAAA | 0.288 |
| AGGGTTCA | -0.119 |
| AACTGGGG | -0.283 |
| GCCGGACA | -0.285 |
| TACCAGTA | 0.0982 |
| AGGGGCAA | -0.174 |
| GTAAAGAA | 0.172 |

A few entries again (sample 3):
| Sequence | RBNS enrichment (R) |
| --- | --- |
| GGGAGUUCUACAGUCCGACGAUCAAGCCAGCACGCGGUUCUGUGCUAUAGGAGUCUCCCGUUUCCCGUGGACAGGUUCAGCGUUCCUUCUUUCGCACAACUUUUUUCUAAGUGUUCCAGUGACCAAGCCAGUCUGGAAUUCUCGGGUGCCAA | 1.65 |
| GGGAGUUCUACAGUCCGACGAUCGGAUUGUAGGCAAACCCACCUGUGGCAUCACUGAAAAUAAAUUUGAUCAUACCUAAGAGGUUAGGAAAUGGUGCCAUUCCCACCUUAGAGUGCUACAUAGGUGCUUUGGGUGGAAUUCUCGGGUGCCAA | 0.231 |
| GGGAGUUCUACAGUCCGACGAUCUACUACAUGAUUUGUUCCCAGAGGUUUGAAACAUUCAGUGAAACUUUUUAAAACUUUGAUUGCAUGAUGUAUUUUUUUUUUAGAAAGUUAUUGUUUGAGAAUAAUGUCUUUGGAAUUCUCGGGUGCCAA | 24.1 |
| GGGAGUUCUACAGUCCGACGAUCUUUGUCACCUUUGCAUUGCAGAAUAAAUACCCAAUAACCGUUUUUAUAGGAGUUGCUCCUCUUUGCAUGGUUCUGUUCUAUAGAAGUGACUGAUAACAGCCAUUGCACUGUGGAAUUCUCGGGUGCCAA | 0.797 |
| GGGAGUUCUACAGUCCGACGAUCGGGUGCUGCCCUCAGGGACUGCACCCUGACAAGUGUUAAGGCAACAUUCCUUUCUUGUGCCCUGGGCCAAAACCAAUGCUGAUGACCUUAUCAGCUUCCUGUUUCUUCCCUGGAAUUCUCGGGUGCCAA | 0.221 |
| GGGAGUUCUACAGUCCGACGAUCUCUUUUCAGAGUUUCGAAGGAUUAAUGACUUCCUCAGCGCCCUUGCUGGCGGGCUGAGGGUGACAGUCACGUCCGUUUCUUCUGUAUUAGAAGGCUGCGGUGAUUCAAUUUGGAAUUCUCGGGUGCCAA | 0.217 |
